{"data": "Results gathered from unrelated publications", "note": "A part holds a random share of what one study measured."}
{"data": "Series 1", "target": "Histone acetyltransferase KAT6A, winged helix 1, GST fusion (KAT6A, Homo sapiens, UniProt Q92794, residues 1-85)", "method": "protein binding microarray", "form": "double-stranded DNA, one strand shown", "matrix": "in vitro", "tested at": "not given", "notes": "8-mer, flanks averaged, mean of 2 arrays, mostly near background", "reference": "not given", "reading": "higher = stronger binding", "Residues (chain)": "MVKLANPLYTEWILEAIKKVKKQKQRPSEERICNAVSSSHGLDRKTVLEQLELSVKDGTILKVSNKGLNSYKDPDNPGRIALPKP"}
{"Oligonucleotide": "ACCAACTA", "E-score": -0.0322}
{"Oligonucleotide": "ACGCTCTC", "E-score": 0.157}
{"Oligonucleotide": "GATTTCAC", "E-score": -0.0999}
{"Oligonucleotide": "ACCCTGCA", "E-score": -0.171}
{"data": "Series 2", "target": "Sal-like protein 4, full length isoform B (SALL4, Homo sapiens, UniProt Q9UJQ4-2, residues 1-616)", "method": "universal PBM", "form": "double-stranded DNA, one strand shown", "matrix": "in vitro", "tested at": "not given", "notes": "8-mer, flanks averaged, mean of replicates", "reading": "higher = stronger binding", "Target sequence (chain)": "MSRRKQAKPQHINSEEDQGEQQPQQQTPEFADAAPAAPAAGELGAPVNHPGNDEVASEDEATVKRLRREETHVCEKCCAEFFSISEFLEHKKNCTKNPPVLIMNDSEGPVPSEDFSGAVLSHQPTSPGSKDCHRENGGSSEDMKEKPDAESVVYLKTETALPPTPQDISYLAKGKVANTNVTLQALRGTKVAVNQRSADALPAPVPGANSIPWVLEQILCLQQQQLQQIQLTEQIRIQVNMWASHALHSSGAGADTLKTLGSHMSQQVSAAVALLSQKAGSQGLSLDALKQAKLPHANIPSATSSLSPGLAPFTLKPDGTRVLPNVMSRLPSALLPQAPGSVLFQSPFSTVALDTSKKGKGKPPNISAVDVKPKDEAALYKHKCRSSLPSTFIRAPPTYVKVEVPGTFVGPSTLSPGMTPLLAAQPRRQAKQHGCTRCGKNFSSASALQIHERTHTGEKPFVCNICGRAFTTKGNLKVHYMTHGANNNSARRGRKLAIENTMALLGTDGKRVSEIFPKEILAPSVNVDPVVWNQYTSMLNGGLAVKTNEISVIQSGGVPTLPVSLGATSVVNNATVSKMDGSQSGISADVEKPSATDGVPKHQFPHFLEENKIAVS"}
{"Oligonucleotide": "CTTACCCA", "E-score": 0.122}
{"Oligonucleotide": "GTAATACA", "E-score": 0.261}
{"Oligonucleotide": "GTACTAGA", "E-score": 0.0954}
{"Oligonucleotide": "AGAGATGA", "E-score": 0.0501}
{"data": "Series 3", "target": "Interferon regulatory factor 7, full length, phosphomimetic (IRF7, Homo sapiens, UniProt Q92985, residues 1-503, S471D/S472D/S475D/S476D/S477D/S483D/S484D/S487D)", "method": "protein-binding microarray", "form": "double-stranded DNA, one strand shown", "matrix": "in vitro", "tested at": "2200 nM top", "notes": "60-bp whole probe", "added": "salmon DNA 0.4 mg/ml", "reference": "random background probes", "reading": "higher = stronger binding", "chain of UniProt Q92985 (whole entry, unmodified, looked up)": "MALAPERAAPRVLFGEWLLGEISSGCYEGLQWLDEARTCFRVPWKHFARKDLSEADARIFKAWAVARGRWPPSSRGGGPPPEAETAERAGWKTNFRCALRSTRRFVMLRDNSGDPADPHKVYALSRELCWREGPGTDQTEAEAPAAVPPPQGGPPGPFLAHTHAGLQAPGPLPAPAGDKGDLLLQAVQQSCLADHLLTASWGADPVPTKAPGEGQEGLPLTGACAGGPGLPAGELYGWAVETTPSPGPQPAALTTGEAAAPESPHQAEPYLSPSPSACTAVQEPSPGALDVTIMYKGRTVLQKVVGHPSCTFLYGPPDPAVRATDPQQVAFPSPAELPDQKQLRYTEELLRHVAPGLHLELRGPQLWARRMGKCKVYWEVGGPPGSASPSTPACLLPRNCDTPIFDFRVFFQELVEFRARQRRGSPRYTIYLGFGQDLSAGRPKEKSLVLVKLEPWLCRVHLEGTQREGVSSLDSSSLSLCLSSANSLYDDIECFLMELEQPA"}
{"Oligonucleotide": "GCCTAGCACTTGACTCTTTCTGTCAGTTTGTGCTAGGTCTTGATTCGCTTGACGCTGCTG", "fitted relative affinity [z-score]": 1.52}
{"Oligonucleotide": "GCCTAGCACTCAGATCTCAGTATCGATTAGTGCTAGGTCTTGATTCGCTTGACGCTGCTG", "fitted relative affinity [z-score]": 0.516}
{"Oligonucleotide": "GCCTAGCACTTAGGTATCCTTATCCGTTAGTGCTAGGTCTTGATTCGCTTGACGCTGCTG", "fitted relative affinity [z-score]": 0.809}
{"data": "Single results of other studies"}
{"Molecule": "PhoQ, residues 284 288 289 292 302 303 AGCYAI", "target": "PhoP, residues 12 14 15 18 19 LHHVQ (Escherichia coli, UniProt P23836)", "assay": "Sort-seq, measured: YFP reporter", "system": "E. coli", "conditions": "PhoQ-PhoP variant library, added: 10 µM Mg2+", "how to read": "reference: high Mg2+ state, higher = stronger signaling", "quantity": "fold induction", "value": 27.9}
{"note": "For quick reference, copied from above (series 1):"}
{"Oligonucleotide": "GATTTCAC", "E-score": -0.0999}
{"Oligonucleotide": "ACCCTGCA", "E-score": -0.171}
